Assay results of several laboratories.
Each numbered part is a random draw from the data of one study; scales do not carry over between parts. Changes are numbered by the printed parent chain.

Sample 1
Target: RING finger protein unkempt homolog, zinc fingers 1-6, GST-SBP tag (UNK, Homo sapiens, UniProt Q9C0B0, residues 30-357)
Method: RNA Bind-n-Seq
Molecule type: RNA
Medium: in vitro
Tested at: not given
Notes: RNA with constant flanks, human-mouse chimeric sites, ends assumed
Relative to: input RNA pool
Direction: higher = stronger binding
Shared flanks, not repeated: GGGAGUUCUACAGUCCGACGAUC … CAACAGAGGAUUGAGCAUCA
Construct (chain): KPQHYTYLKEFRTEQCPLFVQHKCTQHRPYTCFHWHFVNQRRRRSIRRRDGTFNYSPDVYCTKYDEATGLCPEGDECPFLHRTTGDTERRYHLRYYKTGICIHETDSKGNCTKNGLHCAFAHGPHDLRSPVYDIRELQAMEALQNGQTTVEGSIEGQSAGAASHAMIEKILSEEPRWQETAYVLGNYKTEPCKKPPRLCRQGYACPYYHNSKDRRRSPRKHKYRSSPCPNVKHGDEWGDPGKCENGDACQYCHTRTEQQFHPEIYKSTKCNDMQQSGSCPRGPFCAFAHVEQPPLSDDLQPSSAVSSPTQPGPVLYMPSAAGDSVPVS
For `GUGCCCUUCUCGCUGCUGCGGAGCCCGAGCUGGGAACCAUUCCGGGACUGGUACCCUGCACACAGCCGCCUCUUCGACCAGGCCUUCGGGGUGCCCCGGCUGCCGGAUGAGUGGUCGCAG`, the bound/input enrichment was 0.0546 ratio.
`GCCACCAGAUCCCAGAAACAUGACCCUUGCUGCCUACAAAGAGAAGAUGAAGGAGCUCCCGCUGGUGUCCUUGUUCUGCUCCUGCUUCUUGUCUGAUCCCCUGAAUAAAUCAUCCUACAA` gave a bound/input enrichment of 0.371 ratio.
With `GUAUACGGUUAUCGAGGAAAGGACUGUAGAGCGAAUGUAUACCUGCUUCCCACAGGGGAGAUAGUUUAUUUCAUUGCCUCAGUGGUAGUCCUGUUUAAUUAUGAGGAGAGGACUCAGCGA` the bound/input enrichment was 0.872 ratio.
`UGGCGCCUGCGCUCCCCACUCGUGUUUGUAUUUUUAUAAGAUGUAUAUACAUGUAUUUACAAUUGAGCUUUUGUUACAUAAUGCUGAAAUGCUACUGGAGAUUAUGAAAAAUGUUUCAAU` has a bound/input enrichment of 0.211 ratio.
The bound/input enrichment of `CGGAGCCCUCCUCUCCCACAGGCCCAAGAUAUAACCCACCAGUGCCUUUUGUCUUCCCGUUAGCUUUGUCAAUCACGCCUGUCCUCUCACGCCCACACCAAGUGCCCAAAGUGGGGAGGG` is reported as 14.2 ratio.
With `AACAGAUUGUCUUUAAGCAUUCCAAGCGAGAAUGCUGGGGUGAUCAUAAUUACCCACAUAUAGUAAUACUGAGCUUUAAUGCUGUUCCAUGUUACAUCUUUCCUUCACUCCAGAAUUGUU` the bound/input enrichment was 0.865 ratio.
For `GUGCCCUUCUCGCUGCUGCGGAGCCCGAGCUGGGAACACCCCUUCCGCGACUGGUACGCACACAGCCGCCUCUUCGAUCAAGCUUUCGGGGUGCCCCGGUUGCCCGAUGAGUGGUCGCAG`, the bound/input enrichment was 0.0951 ratio.
With `CAGCCUCAGAGCCCAGACUUCCUGGACAUUACCAACCCUAAAGCGGUAUUAGAAAAUGCAUUGAGAAACUUCGCCUGUCUGACGACUGGAGAUGUGAUUGCUAUCAACUACAAUGAGAAG` the bound/input enrichment was 0.437 ratio.

Sample 2
Target: Histone acetyltransferase KAT6A, winged helix 1, GST fusion (KAT6A, Homo sapiens, UniProt Q92794, residues 1-85)
Method: protein binding microarray
Molecule type: double-stranded DNA, one strand shown
Medium: in vitro
Tested at: not given
Notes: 8-mer, flanks averaged, mean of 2 arrays, mostly near background
Relative to: not given
Direction: higher = stronger binding
Target sequence (chain): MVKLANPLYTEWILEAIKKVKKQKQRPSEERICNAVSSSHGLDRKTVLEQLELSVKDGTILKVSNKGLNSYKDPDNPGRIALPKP
`CCGTCTGC` gave an E-score of 0.217.
`CATCTAAG` has an E-score of -0.0213.
With `CGCCACTA` the E-score was 0.133.
`AAACAGGA` has an E-score of -0.303.
For `TATGTAAA`, the E-score was -0.124.
`TGTCGTAA` gave an E-score of -0.0599.
For `CCGAGACG`, the E-score was 0.207.
With `AGAAGGCG` the E-score was -0.0483.
For `GCCGAAAA`, the E-score was 0.148.
For `GCCAACAC`, the E-score was -0.0112.
With `AGATTCCA` the E-score was -0.203.
`ACGAACCT` has an E-score of -0.0832.
`CTGAGCGA` has an E-score of -0.0424.
With `GAGGGCGA` the E-score was 0.0918.
The E-score of `ACCTTACG` is reported as 0.145.
For `ATAAGAGC`, the E-score was -0.023.
The E-score of `CAAAAACA` is reported as -0.148.
The E-score of `CTAGTGAC` is reported as -0.104.
With `AGTGCCGC` the E-score was 0.336.
`ATTTTTCG` gave an E-score of -0.0756.
For `ACTGCTCT`, the E-score was -0.0376.

Sample 3
Target: Myc proto-oncogene protein, bHLH-zipper, MAX partner unstated (MYC, Homo sapiens, UniProt P01106, residues 368-449)
Sequence of UniProt P01106 (368-449, looked up): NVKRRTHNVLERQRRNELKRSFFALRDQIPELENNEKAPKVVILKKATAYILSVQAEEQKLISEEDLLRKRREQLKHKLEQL
Method: protein-binding microarray
Molecule type: double-stranded DNA, one strand shown
Medium: in vitro
Tested at: not given
Notes: k-mer, scored over probes, only values ≥0.25
Direction: higher = stronger binding
`ACGTCGTG` has an E-score of 0.296.
`CACATGGC` has an E-score of 0.486.
With `AAGCCATG` the E-score was 0.336.
For `TCCCACGA`, the E-score was 0.252.
`GCGTGATA` gave an E-score of 0.322.
The E-score of `CACCTCAC` is reported as 0.282.
`AAGCGCGC` has an E-score of 0.258.
`CGTGTCAA` gave an E-score of 0.366.
For `ACGACCAC`, the E-score was 0.342.
The E-score of `CCCACGGG` is reported as 0.27.
The E-score of `CATGCAGC` is reported as 0.331.
For `ACGCGGAC`, the E-score was 0.358.
With `CCACGCCA` the E-score was 0.416.
`GGGGAGGA` has an E-score of 0.262.
`GCACGCGA` gave an E-score of 0.414.
`CATGGCTA` has an E-score of 0.361.
For `CAATCACG`, the E-score was 0.264.
For `CCCCCGCA`, the E-score was 0.284.
For `ATGGCCGC`, the E-score was 0.305.
`CACCACAC` has an E-score of 0.316.
`ACTGCGTG` has an E-score of 0.345.
`ATGGGGCA` has an E-score of 0.278.
`CCCCATGC` gave an E-score of 0.411.

Sample 4
Target: CCND3, cyclin fold, Cln2 fusion (human)
Method: yeast growth competition, sequencing
Medium: yeast
Notes: weak parent motif
Relative to: not given
Direction: higher = stronger binding
Starting sequence: E2F1 docking peptide (human); PPVKRRLDFETDH; partner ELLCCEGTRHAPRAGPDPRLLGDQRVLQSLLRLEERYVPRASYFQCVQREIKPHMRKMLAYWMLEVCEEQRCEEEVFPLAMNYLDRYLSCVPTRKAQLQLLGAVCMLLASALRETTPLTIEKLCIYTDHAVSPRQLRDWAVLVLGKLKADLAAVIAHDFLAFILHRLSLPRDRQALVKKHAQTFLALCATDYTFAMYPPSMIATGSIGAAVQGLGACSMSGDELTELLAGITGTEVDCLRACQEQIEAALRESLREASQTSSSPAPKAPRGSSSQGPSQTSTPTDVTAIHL
`K4G`: “normalised enrichment score” 0.497.
Under “normalised enrichment score”, `V3I` is recorded as 0.0437.
Under “normalised enrichment score”, `D12L` is recorded as 0.336.
`L7E` — result for “normalised enrichment score”: 0.347.
`F9S`: “normalised enrichment score” 0.0937.
`L7V`: “normalised enrichment score” 0.108.
`P2R` — result for “normalised enrichment score”: 0.147.
Under “normalised enrichment score”, `V3D` is recorded as -0.0119.
Under “normalised enrichment score”, `E10W` is recorded as 0.00885.
`D8T`: “normalised enrichment score” 0.542.
`R6T`: “normalised enrichment score” 0.289.
For `R6N`, “normalised enrichment score” read 0.087.
For `E10V`, “normalised enrichment score” read 0.202.
`R6M` — result for “normalised enrichment score”: 0.197.
Under “normalised enrichment score”, `E10F` is recorded as 0.501.
Under “normalised enrichment score”, `R6H` is recorded as -0.291.
For `P2G`, “normalised enrichment score” read 0.752.
`K4P`: “normalised enrichment score” 0.026.
`K4V`: “normalised enrichment score” 0.373.
For `P2F`, “normalised enrichment score” read -0.185.
Under “normalised enrichment score”, `R5F` is recorded as -0.0709.
`R6E` — result for “normalised enrichment score”: 0.481.
`L7K` — result for “normalised enrichment score”: -0.144.
`P2E`: “normalised enrichment score” 0.155.
`R5T` — result for “normalised enrichment score”: 0.241.

Sample 5
Target: ABI1, truncated, D143A, DHFR fusion (Arabidopsis thaliana)
Method: DHFR PCA, deep sequencing
Medium: yeast
Notes: methotrexate growth selection, single substitutions
Together with: (+)-ABA 710 µM
Relative to: wild-type fitted maximum
Direction: higher = stronger binding
Starting sequence: PYL1, truncated, DHFR fusion (Arabidopsis thaliana); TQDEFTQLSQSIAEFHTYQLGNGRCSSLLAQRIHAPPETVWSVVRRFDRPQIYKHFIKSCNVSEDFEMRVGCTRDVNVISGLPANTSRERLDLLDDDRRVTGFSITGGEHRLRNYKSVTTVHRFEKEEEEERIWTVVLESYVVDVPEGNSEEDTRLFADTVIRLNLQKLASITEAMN
For `E67I`, “relative binding score” read 110%.
`L91A` — result for “relative binding score”: 27%.
For `S117G`, “relative binding score” read 85.4%.
`L112R`: “relative binding score” -0.716%.
`D3I`: “relative binding score” 97.6%.
`K58W` — result for “relative binding score”: 84.2%.
`H110E`: “relative binding score” 22.7%.
For `E174A`, “relative binding score” read 94.7%.
Under “relative binding score”, `V70W` is recorded as 69.7%.
Under “relative binding score”, `R69C` is recorded as 103%.
`K168C`: “relative binding score” 99.8%.
Under “relative binding score”, `G21W` is recorded as 93.8%.
Under “relative binding score”, `T6Q` is recorded as 111%.
For `R49N`, “relative binding score” read 104%.
`I162N`: “relative binding score” 71%.

Excerpt of the above (sample 2):
For `GCCGAAAA`, the E-score was 0.148.
`AAACAGGA` has an E-score of -0.303.
With `AGAAGGCG` the E-score was -0.0483.
`ACGAACCT` has an E-score of -0.0832.
With `AGTGCCGC` the E-score was 0.336.
